Experimental data of several laboratories.
Each numbered part is a random draw from the data of one study; scales do not carry over between parts. Changes are numbered by the printed parent chain.

Block 1 — method: protein-binding microarray; molecule type: double-stranded DNA, one strand shown; matrix: in vitro; concentration: 250 nM; notes: 60-bp whole probe; added: salmon DNA 0.4 mg/ml; baseline: random background probes; direction: higher = stronger binding; shared flanks, not repeated: GCCTAGCAC … GTCTTGATTCGCTTGACGCTGCTG
Target: Interferon regulatory factor 5, full length, phosphomimetic (IRF5, Homo sapiens, UniProt Q13568-2, residues 1-514, K96S/S451D/S453D/S456D/S462D)
| Sequence | log fluorescence [z-score] |
| --- | --- |
| TTATATCTCAGTTTCGATTAGTGCTAG | 9.53 |
| TTAGATTTCGCGTATCGATTAGTGCTA | 3.73 |
| GACGATTTCGGGACTGGACACGTGCTA | 1.58 |
| GACGGCCTGGACTATCGGGACGTGCTA | 0.459 |
| TCACCCCTCTAGGTTCTCACTGTGCTA | -0.144 |
| GACGAGTTCAGTTCCGAGACGTGCTAG | -0.0424 |
| CACGATTTCAGTTTCGAGACGTGCTAG | 7.14 |
| TCATGGCTCCCTATAAAACTGTGCTAG | -0.519 |
| GACGGTATCGGGACTGGGGATGTGCTA | 1.3 |
| TTAGGTTTCGATTCCGGTTAGTGCTAG | 9.38 |
| GACGGTCTCGGACTGGGGGCGTGCTAG | 0.295 |
| TTAGGTATCCTTTTTCTTTAGTGCTAG | 0.722 |
| TTCTCTATTGCTTTCTCTTTGTGCTAG | 2.95 |
| GACGGACGGCTACTGCTGACGTGCTAG | -0.718 |
| TTAGATATCAGACTGGCTTAGTGCTAG | 0.236 |
| TCAAATATATGTATATAACTGTGCTAG | 0.679 |
| TTCTCCATGGGTATGGCCTAGTGCTAG | -0.167 |
| GACGATATCAGACTGCAGACGTGCTAG | 0.527 |
| GACGCTCTCAGTCTCGAGACGTGCTAG | 0.094 |
| GACGGTCTCGGTTTCGGGAAGTGCTAG | 3.83 |
| GACGAACTGGGGGCTGGAGACGTGCTA | 0.0057 |
| TTAGGTATCCTTCTCCTTGAGTGCTAG | 0.456 |
| TTAGGTTTCGACTTTCGGTAAGTGCTA | 9.97 |
| TTAGGTAGCGACTTTCGGTTAGTGCTA | 9.54 |

Block 2 — method: DHFR PCA, deep sequencing; matrix: yeast; added: (+)-ABA 0.0091 µM; baseline: wild-type fitted maximum; direction: higher = stronger binding
Target: ABI1, truncated, D143A, DHFR fusion (Arabidopsis thaliana)
Notes: methotrexate growth selection, single substitutions
Starting sequence: PYL1, truncated, DHFR fusion (Arabidopsis thaliana); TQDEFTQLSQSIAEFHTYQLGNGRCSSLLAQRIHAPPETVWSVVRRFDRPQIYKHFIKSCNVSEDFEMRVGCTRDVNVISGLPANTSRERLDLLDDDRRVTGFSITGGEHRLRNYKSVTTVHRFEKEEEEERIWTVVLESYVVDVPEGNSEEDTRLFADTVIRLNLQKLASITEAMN; partner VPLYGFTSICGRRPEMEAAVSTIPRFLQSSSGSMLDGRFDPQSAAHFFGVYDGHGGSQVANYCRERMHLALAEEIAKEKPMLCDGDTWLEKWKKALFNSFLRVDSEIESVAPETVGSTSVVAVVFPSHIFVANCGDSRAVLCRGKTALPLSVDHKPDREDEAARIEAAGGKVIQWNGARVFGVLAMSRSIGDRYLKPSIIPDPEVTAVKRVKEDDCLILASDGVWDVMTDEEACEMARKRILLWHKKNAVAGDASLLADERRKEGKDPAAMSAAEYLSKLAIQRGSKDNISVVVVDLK
| Variant | relative binding score [%] |
| --- | --- |
| N177L | 3.75 |
| V76G | 0.42 |
| I172S | -2.95 |
| D153M | -1.8 |
| K126A | 65.7 |
| S80N | 46.2 |
| V76C | 12.9 |
| R90S | -1.81 |
| S42F | 0.231 |
| A84C | 35 |

Block 3 — target: CCNE2, cyclin fold, Cln2 fusion (human); method: yeast growth competition, sequencing; matrix: yeast; notes: strong parent motif; baseline: not given; direction: higher = stronger binding
Starting sequence: NPAT docking peptide (human); PCHRRVLCFDSTT
| Variant | normalised enrichment score |
| --- | --- |
| T13A | 2.08 |
| R5K F9L | 0.143 |
| C8A | 1.35 |
| T12A | 2.05 |
| C2A | 2.84 |
| F9A | 0.456 |
| P1A | 2.24 |

Block 4 — method: protein binding microarray; molecule type: double-stranded DNA, one strand shown; matrix: in vitro; concentration: not given; baseline: not given; direction: higher = stronger binding
Target: Histone acetyltransferase KAT6A, winged helix 2, GST fusion (KAT6A, Homo sapiens, UniProt Q92794, residues 85-181)
Notes: 8-mer, flanks averaged, mean of 2 arrays, mostly near background
Construct (chain): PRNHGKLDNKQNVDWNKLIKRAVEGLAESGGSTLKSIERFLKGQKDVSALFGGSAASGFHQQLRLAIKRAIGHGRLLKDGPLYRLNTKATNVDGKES
| Sequence | E-score |
| --- | --- |
| TAGTCGGA | -0.0746 |
| ACCGGTTG | 0.0492 |
| CGCGCCAA | 0.224 |
| GAACTAGA | 0.207 |
| GAGGGATC | -0.0406 |
| AGACTGCT | -0.282 |
| ATTTCGAC | -0.178 |
| GAGGGTAC | -0.148 |
| AGATACAC | -0.0191 |
| CTCTTAAC | -0.0306 |
| GGTTTACA | -0.0618 |
| CCTCTGGA | 0.0767 |
| CATACCCC | -0.00309 |
| ACAAAATC | 0.026 |
| AGACGCAA | 0.0813 |
| AACGTATA | -0.212 |
| AGAATGGA | 0.105 |
| ATGAACAG | -0.0215 |
| GTGAACTA | -0.0539 |
| ACTGACCG | -0.146 |
| AGTTCCAT | -0.0531 |
| CAATCCAG | 0.0913 |
| ACTTTACG | -0.131 |
| CCGTACGA | -0.129 |
| ACGTTGCC | -0.116 |

Block 5 — method: RNA Bind-n-Seq; molecule type: RNA; matrix: in vitro; concentration: 200 nM; notes: whole 134-nt RNA, ends assumed; added: 150 mM KCl; baseline: input library; direction: higher = stronger binding
Target: Ras GTPase-activating protein-binding protein 1, full length (G3BP1, Homo sapiens, UniProt Q13283)
UniProt Q13283, sequence (whole entry, looked up): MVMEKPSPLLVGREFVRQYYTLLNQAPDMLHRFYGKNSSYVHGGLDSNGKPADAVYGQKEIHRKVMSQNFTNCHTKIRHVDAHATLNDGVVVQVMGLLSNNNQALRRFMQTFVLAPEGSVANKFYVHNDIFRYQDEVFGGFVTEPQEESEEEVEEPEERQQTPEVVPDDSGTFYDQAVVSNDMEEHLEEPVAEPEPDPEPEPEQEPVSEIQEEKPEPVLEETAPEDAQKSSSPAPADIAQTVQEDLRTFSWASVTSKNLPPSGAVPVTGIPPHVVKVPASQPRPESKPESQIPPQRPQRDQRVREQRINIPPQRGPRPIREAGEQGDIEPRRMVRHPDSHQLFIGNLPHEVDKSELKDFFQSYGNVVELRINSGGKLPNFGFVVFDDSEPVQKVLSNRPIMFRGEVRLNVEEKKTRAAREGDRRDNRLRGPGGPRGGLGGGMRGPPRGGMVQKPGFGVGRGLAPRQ
| Sequence | log2 enrichment |
| --- | --- |
| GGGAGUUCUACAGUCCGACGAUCUUGUGGGAGGAUUUUGAGAUACUUAUUCUUUAUUUGAGCCAGUCUUGCAAGGUUAACUUCUCACUGGGCCUAGUGUGGUGCCCAGGUUUUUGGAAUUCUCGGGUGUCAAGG | -1.81 |
| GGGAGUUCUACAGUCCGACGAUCCACAGACAACACGCACCCACACAGACCCAGAGGGAAGGGGUUGGGAUGGGGACAGGGUGCACAGCAGGGCGGGGUAGGACCCCAGCCCCUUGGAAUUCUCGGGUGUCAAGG | 1.82 |
| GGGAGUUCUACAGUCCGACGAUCAGUCCUGUGCUACACAUCGUAUGUACCGAAUCGGGGAAAAGGGAAAAGGAAAAGGGGAAAGUAUUAUGUUACGCCGUUCGGAUCUGCACUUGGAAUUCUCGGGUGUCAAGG | 0.158 |
| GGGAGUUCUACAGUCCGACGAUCGCAGGAAGUAAAAAGAAAUGGAAAUGCUUCGGAUAGUGGCAGGGGUGGGGGUUGCUAAGGAAAGGGUGGGAUGGGAGUGGGUAAAGAGUUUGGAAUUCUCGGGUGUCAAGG | 0.984 |
| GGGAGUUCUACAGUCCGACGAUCACCACUGCUACAGUCACCACCACCCAGGCCUCCUAUGCAGCUCAGUCUGCAUAUGGCACUCAGCCUGCUUAUCCAGCCUAUGGGCAGCAGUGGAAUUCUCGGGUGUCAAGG | -0.0676 |
| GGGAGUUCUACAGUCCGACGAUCUGGGAGGUGGAUUUUGUUUAUUUUUUUAGCUCAUUUCCAGGGGUGGGUAUUUUUUUUUAAUAUGUGUCAUGAAUAAAGUUGUUUUUGAAAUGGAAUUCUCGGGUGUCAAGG | 0.401 |
| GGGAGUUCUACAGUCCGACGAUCUUAGAUGAGGACCUUGAGAUUGAAUUGGUUGAGGAAGAGCCUCCAUUCCUGAGAGGGCACACUAAGCAAAGCAUGGACAUGAGCCCCAUUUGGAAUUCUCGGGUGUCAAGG | -0.446 |
| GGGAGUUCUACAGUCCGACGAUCGCAGGAAGUAAAAACAAAUGGAAAUGCUUCGGAUAGUGGCAGGAGUGGGGGUUGCUAAGGAAAGGGUGGGAUGGGAGUGGGUAAAGAGUUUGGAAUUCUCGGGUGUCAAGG | 0.965 |
| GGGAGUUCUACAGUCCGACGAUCCUCAAGUCCUGUGCUACACAUCGUAUGUACCGAAUCGGGUUGGGGUUGGGUUGGAAAGUAUUAUGUUACGCCGUUCGGAUCUGCACUUCCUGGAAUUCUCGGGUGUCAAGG | 0.297 |
| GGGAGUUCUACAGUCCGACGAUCUUCCGCUGUCUUUUCUGUCUACAGUUUGCGAUCCCCGCGUCCAGGAUGGAGCAGCUGAACGAACUGGAGCUGCUGAUGGAGAAGAGUUUUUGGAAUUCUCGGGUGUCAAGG | -0.411 |
| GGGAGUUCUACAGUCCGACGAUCCUCAAGUCCUGUGCUACACAUCGUAUGUACCGAAUCGGAGGUGGAAAAAAAGGAAAGUAUUAUGUUACGCCGUUCGGAUCUGCACUUCCAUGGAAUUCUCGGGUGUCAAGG | -0.728 |
| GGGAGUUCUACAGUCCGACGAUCUAGAGACUUCAGAUGGAUUUUAAAAUUGAACACACUUGGGAUGGUUUUCCAGUGAAGCAUGAGCCCGUAUUUAUCAGGCUGAAUCCAGGUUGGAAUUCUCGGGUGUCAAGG | -1.41 |
| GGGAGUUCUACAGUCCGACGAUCAAACAGCUCUAUAACAAAAUACAAUGCGGGUUCAUGUUAAUGUUUUUAUCUCUAACAGGUUGGUUUCAGUGCUGAUGAAACUUGGGACUCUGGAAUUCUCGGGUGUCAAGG | -0.948 |
| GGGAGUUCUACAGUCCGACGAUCUCAAGUCCUGUGCUACACAUCGUAUGUACCGAAUCGGUGGAAAAAGGAAAAAGGAAAGUAUUAUGUUACGCCGUUCGGAUCUGCACUUCCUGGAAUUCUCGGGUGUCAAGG | -0.756 |

Some of these lines once more (block 5):
| Sequence | log2 enrichment |
| --- | --- |
| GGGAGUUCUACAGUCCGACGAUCGCAGGAAGUAAAAAGAAAUGGAAAUGCUUCGGAUAGUGGCAGGGGUGGGGGUUGCUAAGGAAAGGGUGGGAUGGGAGUGGGUAAAGAGUUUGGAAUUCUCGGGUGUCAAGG | 0.984 |
| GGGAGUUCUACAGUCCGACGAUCGCAGGAAGUAAAAACAAAUGGAAAUGCUUCGGAUAGUGGCAGGAGUGGGGGUUGCUAAGGAAAGGGUGGGAUGGGAGUGGGUAAAGAGUUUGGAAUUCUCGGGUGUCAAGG | 0.965 |
| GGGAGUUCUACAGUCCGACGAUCUUCCGCUGUCUUUUCUGUCUACAGUUUGCGAUCCCCGCGUCCAGGAUGGAGCAGCUGAACGAACUGGAGCUGCUGAUGGAGAAGAGUUUUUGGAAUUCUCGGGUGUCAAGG | -0.411 |
| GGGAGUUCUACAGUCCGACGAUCCUCAAGUCCUGUGCUACACAUCGUAUGUACCGAAUCGGAGGUGGAAAAAAAGGAAAGUAUUAUGUUACGCCGUUCGGAUCUGCACUUCCAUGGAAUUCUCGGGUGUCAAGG | -0.728 |
| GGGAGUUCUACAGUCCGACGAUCUCAAGUCCUGUGCUACACAUCGUAUGUACCGAAUCGGUGGAAAAAGGAAAAAGGAAAGUAUUAUGUUACGCCGUUCGGAUCUGCACUUCCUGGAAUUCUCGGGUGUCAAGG | -0.756 |
